# Measurements gathered from unrelated publications.
# Protocols differ between the studies behind these lines.
Compound,cell line,test,setting,how to read,quantity,value
CCN(CC)CC(=O)Nc1cccc(-n2cc(-c3ccc4ccc(-c5cn(-c6cccc(NC(=O)CN(CC)CC)c6)nn5)cc4c3)nn2)c1,RCC4,"PCR angiogenesis array, refers to: ANG","5 x IC50, 4 h, normoxia",relative to: untreated,fold regulation,-1.35
CN1CCCNC(=O)c2cccc(c2)C(=O)NCCCN(C)CCCNc2cccc3c2C(=O)c2cccc(c2C3=O)NCCC1,SAS,"RNA-Seq, refers to: HEXIM2 mRNA","1 µM, 6 h",relative to: untreated cells,log2 fold change,1.15
CO[C@@H]1[C@@H](OC(N)=O)[C@@H](O)[C@H](Oc2ccc3c(O)c(NC(=O)c4ccc(O)c(CC=C(C)C)c4)c(=O)oc3c2C)OC1(C)C,HCT-116 BRCA2 wild-type,,"150 µM, replicate B",relative to: untreated,colony survival,79.5%
CC(C)c1ccc(N(C)c2ccc3c(c2)OCC[C@H]3CNc2cnccc2C(=O)O)cc1,T84,"cell growth or viability, ATP luminescence",7 days,,IC50,0.021 µM
CNS(=O)(=O)Nc1nccc(Cc2c(C)c3ccc(Oc4ncccc4F)cc3oc2=O)c1F,LK-2,cell viability,7 days,,IC50,0.00278 µM
Cc1ncsc1-c1ccc(C(C)NC(=O)C2CC(O)CN2C(=O)C(NC(=O)CCCCCCCCCCN2CCCC(Nc3ncc(Cl)c(Nc4ccccc4S(=O)(=O)C(C)C)n3)C2)C(C)(C)C)cc1 (stereo not drawn),22Rv1,"RNA-seq, refers to: TECPR2 mRNA",concentration not given,relative to: DMSO,log2 fold change,-1.63
Cn1ncc2cc(-c3cncc(Cl)c3N3CCC4(CCNC4=O)CC3)ccc21,LS174T,"gene expression, microarray, refers to: CCDC80 mRNA","concentration not given, 4 h",relative to: untreated cells,log2 fold change,2.51
CCN(C(=O)c1cc(F)ccc1Oc1nncnc1N1CCC2(C1)CN([C@H](CCCN(C)CCOC)C(C)C)C2)C(C)C,SK-N-AS,cell growth,168 h,,GI50,> 10 µM
COc1ccccc1-c1ccncc1C(=O)Nc1nnc(OCc2ccc(Cl)cc2)s1,MDA-MB-436 BRCA1-mutant,,"3 µM, mean of 3 replicates",relative to: untreated,colony survival,48.6%

# Excerpt of the above:
Compound,cell line,test,setting,how to read,quantity,value
Cn1ncc2cc(-c3cncc(Cl)c3N3CCC4(CCNC4=O)CC3)ccc21,LS174T,"gene expression, microarray, refers to: CCDC80 mRNA","concentration not given, 4 h",relative to: untreated cells,log2 fold change,2.51
